Assay results from different studies.
Numbered parts are unrelated; each lists some results of a single study. Values joined by “and” are separate records of one study, mostly repeats; a detail may differ.
Chain of UniProt Q9HAZ1 (whole entry, looked up): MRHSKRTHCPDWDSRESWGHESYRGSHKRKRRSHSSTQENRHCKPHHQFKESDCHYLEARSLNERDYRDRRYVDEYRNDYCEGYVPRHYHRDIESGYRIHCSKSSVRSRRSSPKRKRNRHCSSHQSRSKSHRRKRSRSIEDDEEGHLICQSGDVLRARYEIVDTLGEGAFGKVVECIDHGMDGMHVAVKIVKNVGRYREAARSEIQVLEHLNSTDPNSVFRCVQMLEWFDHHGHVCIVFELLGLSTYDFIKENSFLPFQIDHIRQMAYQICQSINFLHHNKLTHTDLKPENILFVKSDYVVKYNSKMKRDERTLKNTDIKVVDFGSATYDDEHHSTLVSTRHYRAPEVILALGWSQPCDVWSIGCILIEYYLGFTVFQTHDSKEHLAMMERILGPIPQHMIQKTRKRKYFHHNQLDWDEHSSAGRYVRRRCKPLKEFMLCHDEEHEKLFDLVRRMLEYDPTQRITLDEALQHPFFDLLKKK
Chain of UniProt Q9UM73 (whole entry, looked up): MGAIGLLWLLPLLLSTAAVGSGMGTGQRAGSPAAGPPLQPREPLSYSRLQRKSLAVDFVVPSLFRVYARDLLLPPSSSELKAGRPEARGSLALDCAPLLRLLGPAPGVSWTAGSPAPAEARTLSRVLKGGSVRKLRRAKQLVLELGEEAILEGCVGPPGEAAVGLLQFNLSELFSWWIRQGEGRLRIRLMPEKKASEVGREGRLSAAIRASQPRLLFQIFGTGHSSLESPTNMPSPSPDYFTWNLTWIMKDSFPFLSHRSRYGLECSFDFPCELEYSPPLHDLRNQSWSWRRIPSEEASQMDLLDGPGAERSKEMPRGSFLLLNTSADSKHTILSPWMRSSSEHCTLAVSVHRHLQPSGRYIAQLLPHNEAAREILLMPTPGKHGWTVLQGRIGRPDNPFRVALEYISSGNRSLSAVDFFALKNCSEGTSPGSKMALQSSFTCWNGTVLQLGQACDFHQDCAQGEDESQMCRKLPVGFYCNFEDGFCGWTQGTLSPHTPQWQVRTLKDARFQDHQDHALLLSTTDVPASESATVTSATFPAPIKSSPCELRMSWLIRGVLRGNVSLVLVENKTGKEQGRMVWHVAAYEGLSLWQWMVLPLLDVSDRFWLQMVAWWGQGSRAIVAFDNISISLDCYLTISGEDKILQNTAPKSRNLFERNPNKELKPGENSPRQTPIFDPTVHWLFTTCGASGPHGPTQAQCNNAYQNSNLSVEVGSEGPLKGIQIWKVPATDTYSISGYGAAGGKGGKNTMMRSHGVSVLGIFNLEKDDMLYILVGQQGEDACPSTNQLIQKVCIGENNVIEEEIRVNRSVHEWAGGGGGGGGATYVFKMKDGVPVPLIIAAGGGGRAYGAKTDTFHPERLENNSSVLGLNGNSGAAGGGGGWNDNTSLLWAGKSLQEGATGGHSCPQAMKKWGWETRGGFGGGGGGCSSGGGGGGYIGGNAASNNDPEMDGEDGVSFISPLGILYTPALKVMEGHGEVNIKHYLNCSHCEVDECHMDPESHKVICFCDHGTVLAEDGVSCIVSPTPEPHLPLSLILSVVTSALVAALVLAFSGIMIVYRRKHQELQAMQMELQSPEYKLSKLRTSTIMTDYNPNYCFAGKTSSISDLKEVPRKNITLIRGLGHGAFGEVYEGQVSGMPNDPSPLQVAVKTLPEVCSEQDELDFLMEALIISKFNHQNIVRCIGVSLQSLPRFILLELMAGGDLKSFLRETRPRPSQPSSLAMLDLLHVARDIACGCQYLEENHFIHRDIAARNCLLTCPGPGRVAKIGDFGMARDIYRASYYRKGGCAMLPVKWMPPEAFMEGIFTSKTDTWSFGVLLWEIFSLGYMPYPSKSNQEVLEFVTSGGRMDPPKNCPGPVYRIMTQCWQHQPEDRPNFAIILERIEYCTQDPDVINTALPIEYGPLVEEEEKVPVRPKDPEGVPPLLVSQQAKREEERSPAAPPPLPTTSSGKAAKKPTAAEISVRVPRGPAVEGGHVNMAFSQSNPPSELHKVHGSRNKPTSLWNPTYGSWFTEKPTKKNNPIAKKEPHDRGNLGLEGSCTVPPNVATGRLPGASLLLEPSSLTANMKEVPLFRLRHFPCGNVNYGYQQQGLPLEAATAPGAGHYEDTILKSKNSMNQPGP
Chain of UniProt Q15418 (whole entry, looked up): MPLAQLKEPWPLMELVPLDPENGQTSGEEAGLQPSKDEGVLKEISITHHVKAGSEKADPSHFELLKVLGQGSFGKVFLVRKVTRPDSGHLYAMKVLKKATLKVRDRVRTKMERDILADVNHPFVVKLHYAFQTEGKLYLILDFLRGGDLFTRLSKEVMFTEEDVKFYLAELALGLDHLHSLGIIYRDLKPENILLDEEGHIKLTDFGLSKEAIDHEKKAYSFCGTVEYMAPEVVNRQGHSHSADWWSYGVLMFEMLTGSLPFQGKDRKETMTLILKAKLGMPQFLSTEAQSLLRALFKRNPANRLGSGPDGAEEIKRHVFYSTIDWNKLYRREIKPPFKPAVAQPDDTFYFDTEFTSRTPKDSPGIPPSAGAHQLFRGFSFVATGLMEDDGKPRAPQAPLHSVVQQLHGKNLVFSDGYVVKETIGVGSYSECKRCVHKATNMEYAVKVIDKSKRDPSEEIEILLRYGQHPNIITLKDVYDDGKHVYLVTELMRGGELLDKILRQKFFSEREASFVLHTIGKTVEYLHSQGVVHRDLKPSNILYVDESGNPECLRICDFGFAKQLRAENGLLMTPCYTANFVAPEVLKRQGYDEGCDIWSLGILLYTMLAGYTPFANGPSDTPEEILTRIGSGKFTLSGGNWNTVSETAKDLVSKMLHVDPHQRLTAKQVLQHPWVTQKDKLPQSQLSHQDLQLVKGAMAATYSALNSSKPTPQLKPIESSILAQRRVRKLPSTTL

Study 1 — effect on: kinase activity
SMILES: CNc1ncc2cc(-c3cc(OC)cc(OC)c3Cl)c(=O)n(CCc3ccc(NC(=O)C(C#N)=CC(C)(C)N4CCOCC4)cc3)c2n1
target | conditions | inhibition [%]
YES1 (Homo sapiens, UniProt P07947) | 1 µM | 18
CLK4 (Homo sapiens, UniProt Q9HAZ1) | 1 µM | -2
PAK5 (Homo sapiens, UniProt Q9P286) | 0.1 µM | -3
BRSK1 (Homo sapiens, UniProt Q8TDC3) | 0.1 µM | 1
CLK1 (Homo sapiens, UniProt P49759) | 0.1 µM | 4
ALK (Homo sapiens, UniProt Q9UM73) | 1 µM | 2
PRKACB (Homo sapiens, UniProt P22694) | 1 µM | 2
RPS6KA1 (Homo sapiens, UniProt Q15418) | 1 µM | -1

Study 2 — effect on: thermal unfolding; method: differential scanning fluorimetry; concentration: 5.5 µM; direction: higher = more unfolded
Compound: C[C@@H]1CN(c2ccc(-c3cc(C(=O)NCCOCCOCCOCCOCCNC(=O)/C=C/c4[nH]cc(C(=O)N[C@@H](CC(N)=O)c5ccc(F)c(Cl)c5)c4-c4ccc(Cl)cc4F)ccc3F)cc2NC(=O)c2c[nH]c(=O)cc2C(F)(F)F)C[C@H](C)N1C
WDR5: WD repeat-containing protein 5 (WDR5, Homo sapiens, UniProt P61964)
DCAF1: DDB1- and CUL4-associated factor 1 (DCAF1, Homo sapiens, UniProt Q9Y4B6)
Chain of UniProt Q9Y4B6 (whole entry, looked up): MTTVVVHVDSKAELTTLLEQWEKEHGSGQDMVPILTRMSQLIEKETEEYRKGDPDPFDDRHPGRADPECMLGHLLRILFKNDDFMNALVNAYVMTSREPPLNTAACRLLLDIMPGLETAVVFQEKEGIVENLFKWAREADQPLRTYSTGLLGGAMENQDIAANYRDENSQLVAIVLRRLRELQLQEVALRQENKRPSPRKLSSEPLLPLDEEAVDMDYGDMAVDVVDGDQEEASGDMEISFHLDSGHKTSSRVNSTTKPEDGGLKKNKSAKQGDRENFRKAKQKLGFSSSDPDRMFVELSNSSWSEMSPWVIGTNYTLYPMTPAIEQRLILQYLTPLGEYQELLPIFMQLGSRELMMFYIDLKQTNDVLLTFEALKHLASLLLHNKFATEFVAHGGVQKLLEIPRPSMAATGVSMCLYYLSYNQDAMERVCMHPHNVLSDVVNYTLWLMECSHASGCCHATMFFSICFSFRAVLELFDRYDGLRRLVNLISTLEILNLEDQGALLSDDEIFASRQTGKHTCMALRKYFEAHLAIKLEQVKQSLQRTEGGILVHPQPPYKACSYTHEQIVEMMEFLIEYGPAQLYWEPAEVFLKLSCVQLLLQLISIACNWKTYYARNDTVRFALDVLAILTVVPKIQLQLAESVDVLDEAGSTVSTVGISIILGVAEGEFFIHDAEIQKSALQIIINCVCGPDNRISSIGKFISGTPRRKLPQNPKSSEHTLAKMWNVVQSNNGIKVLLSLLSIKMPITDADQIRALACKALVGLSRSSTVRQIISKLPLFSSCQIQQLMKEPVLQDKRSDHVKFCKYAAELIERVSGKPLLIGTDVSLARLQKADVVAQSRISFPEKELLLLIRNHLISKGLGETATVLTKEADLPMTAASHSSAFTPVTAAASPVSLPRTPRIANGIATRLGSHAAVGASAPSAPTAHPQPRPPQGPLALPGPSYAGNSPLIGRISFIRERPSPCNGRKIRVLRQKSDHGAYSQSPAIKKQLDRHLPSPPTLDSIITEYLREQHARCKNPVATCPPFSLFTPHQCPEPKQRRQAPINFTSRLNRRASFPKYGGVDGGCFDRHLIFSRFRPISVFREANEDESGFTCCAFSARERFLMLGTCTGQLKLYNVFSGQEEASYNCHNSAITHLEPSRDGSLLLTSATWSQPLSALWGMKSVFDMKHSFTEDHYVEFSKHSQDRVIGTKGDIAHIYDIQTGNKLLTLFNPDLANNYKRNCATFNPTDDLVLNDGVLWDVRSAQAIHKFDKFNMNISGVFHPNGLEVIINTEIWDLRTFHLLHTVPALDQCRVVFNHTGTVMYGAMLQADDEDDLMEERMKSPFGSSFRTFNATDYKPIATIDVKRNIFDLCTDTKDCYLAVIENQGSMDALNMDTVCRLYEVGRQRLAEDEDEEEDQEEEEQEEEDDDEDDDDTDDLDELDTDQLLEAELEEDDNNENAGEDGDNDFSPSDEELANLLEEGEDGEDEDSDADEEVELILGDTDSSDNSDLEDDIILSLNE
target | conditions | SYPRO Orange fluorescence
WDR5 | 36 °C | 13400 a.u.
DCAF1 | 48 °C | 14300 a.u.
DCAF1 | 80.61 °C | 44500 a.u.
WDR5 | 58.01 °C | 16300 a.u.
WDR5 | 72.41 °C | 20100 a.u.
WDR5 | 75.81 °C | 27800 a.u.
WDR5 | 61.21 °C | 15300 a.u.
DCAF1 | 35.6 °C | 10400 a.u.

Study 3
Compound: Cc1ccc(O)c(C)c1-c1cnc2[nH]c(-c3cnc(N4CC5(CC(CN6CCN(c7ccc(NC8CCC(=O)NC8=O)cc7F)CC6)C5)C4)nc3)cc2c1C#N (centres unmarked)
Target: Membrane-associated tyrosine- and threonine-specific cdc2-inhibitory kinase (PKMYT1, Homo sapiens, UniProt Q99640)
Chain of UniProt Q99640 (whole entry, looked up): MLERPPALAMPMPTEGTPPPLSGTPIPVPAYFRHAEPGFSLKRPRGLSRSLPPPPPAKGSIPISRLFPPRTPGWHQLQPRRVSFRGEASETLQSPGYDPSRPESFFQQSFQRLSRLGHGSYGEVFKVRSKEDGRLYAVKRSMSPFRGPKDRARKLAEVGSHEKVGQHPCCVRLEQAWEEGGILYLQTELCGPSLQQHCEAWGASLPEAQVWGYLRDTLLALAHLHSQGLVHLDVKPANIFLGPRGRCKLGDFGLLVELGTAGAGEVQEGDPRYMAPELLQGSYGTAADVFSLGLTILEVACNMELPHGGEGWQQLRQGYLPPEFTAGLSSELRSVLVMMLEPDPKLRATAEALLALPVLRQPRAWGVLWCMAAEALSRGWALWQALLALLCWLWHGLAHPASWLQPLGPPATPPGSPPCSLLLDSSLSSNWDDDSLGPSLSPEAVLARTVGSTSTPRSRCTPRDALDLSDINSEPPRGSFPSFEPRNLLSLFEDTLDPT
test | conditions | inhibition
cell-free assay, inhibitor, TR-FRET | 12.35 nM | 92.8%
cell-free assay, inhibitor, TR-FRET | 4.12 nM | 66.1%
– | 0.00137 µM | 24.4%
– | 0.00412 µM | 64.5%
cell-free assay, inhibitor, TR-FRET | 460 pM | 9.97%
cell-free assay, inhibitor, TR-FRET | 1.37 nM | 26.8%
– | 0.03704 µM | 97.9%
– | 5.1e-05 µM | -6.57%

Study 4 — host: Crbn I391V mouse, MC-38 tumour
SMILES: Cn1cc(-c2cccc(CN3CCC4(CC3)COc3c4ccc4c3CN([C@H]3CCC(=O)NC3=O)C4=O)c2)cn1
conditions | tumour volume
oral, 30 mg/kg once daily, day 7 | 173 mm3 and 361 mm3 and 150 mm3 and 285 mm3
oral, 30 mg/kg once daily, day 18 | 510 mm3 and 46.9 mm3 and 630 mm3 and 31.5 mm3 and 63.6 mm3
oral, daily, 30 mg/kg, day 8, anti-PD1 combination study | 270 mm3 and 306 mm3 and 523 mm3 and 181 mm3 and 325 mm3
oral, 30 mg/kg once daily, day 14 | 265 mm3 and 402 mm3 and 80.1 mm3 and 274 mm3 and 201 mm3
oral, 30 mg/kg once daily, day 22 | 1620 mm3 and 53.4 mm3 and 773 mm3 and 1060 mm3 and 916 mm3
30 mg/kg, day 6, with: anti-LAG3 antibody 10 mg/kg weekly | 321 mm3 and 296 mm3 and 254 mm3 and 227 mm3
30 mg/kg, day 48, with: anti-LAG3 antibody 10 mg/kg weekly | 1020 mm3
oral, daily, 30 mg/kg, day 25, anti-PD1 combination study | 2010 mm3 and 2040 mm3 and 1120 mm3 and 417 mm3 and 519 mm3 and 1170 mm3 and 573 mm3

Repeated from above (study 3):
test | conditions | inhibition
cell-free assay, inhibitor, TR-FRET | 460 pM | 9.97%
cell-free assay, inhibitor, TR-FRET | 1.37 nM | 26.8%
